Published values from different studies.
± marks the error that the study gave.
CSNK1E: Casein kinase I isoform epsilon (CSNK1E, Homo sapiens, UniProt P49674)
UniProt P49674, sequence (whole entry, looked up): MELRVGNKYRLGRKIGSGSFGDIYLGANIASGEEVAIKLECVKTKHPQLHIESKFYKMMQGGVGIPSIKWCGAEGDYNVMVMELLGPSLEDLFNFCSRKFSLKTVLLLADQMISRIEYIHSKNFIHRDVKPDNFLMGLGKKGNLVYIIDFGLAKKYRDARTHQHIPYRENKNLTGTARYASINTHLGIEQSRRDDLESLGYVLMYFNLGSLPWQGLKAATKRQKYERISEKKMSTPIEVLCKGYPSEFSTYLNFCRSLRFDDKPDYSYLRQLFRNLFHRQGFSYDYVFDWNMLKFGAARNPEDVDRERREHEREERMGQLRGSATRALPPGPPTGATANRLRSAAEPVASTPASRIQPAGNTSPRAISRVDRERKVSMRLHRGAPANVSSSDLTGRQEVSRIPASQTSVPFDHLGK
DRD2: D(2) dopamine receptor (DRD2, Homo sapiens, UniProt P14416)
UniProt P14416, sequence (whole entry, looked up): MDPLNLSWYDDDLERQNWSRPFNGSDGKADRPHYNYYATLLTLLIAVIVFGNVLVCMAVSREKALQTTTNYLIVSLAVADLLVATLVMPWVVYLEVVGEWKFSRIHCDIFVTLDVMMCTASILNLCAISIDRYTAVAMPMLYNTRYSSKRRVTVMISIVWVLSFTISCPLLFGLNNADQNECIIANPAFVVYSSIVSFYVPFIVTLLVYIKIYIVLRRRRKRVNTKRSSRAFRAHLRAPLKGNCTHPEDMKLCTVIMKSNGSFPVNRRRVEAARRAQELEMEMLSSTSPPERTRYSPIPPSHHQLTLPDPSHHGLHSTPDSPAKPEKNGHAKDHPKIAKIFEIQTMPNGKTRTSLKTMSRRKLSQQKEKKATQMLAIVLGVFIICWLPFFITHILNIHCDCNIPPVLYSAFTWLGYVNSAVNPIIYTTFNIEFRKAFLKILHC
CDK6 with cyclin D1: Cyclin-dependent kinase 6, with cyclin D1 (CDK6, Homo sapiens, UniProt Q00534)
UniProt Q00534, sequence (whole entry, looked up): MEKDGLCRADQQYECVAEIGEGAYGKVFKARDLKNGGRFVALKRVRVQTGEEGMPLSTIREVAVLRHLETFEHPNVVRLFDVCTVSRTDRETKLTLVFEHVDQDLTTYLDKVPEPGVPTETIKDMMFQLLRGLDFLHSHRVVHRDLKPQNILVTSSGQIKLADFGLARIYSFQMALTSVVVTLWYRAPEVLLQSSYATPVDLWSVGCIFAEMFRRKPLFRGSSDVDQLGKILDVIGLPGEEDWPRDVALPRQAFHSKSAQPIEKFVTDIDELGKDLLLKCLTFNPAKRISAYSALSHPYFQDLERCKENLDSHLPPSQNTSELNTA
NTRK3: NT-3 growth factor receptor (NTRK3, Homo sapiens, UniProt Q16288)
UniProt Q16288, sequence (whole entry, looked up): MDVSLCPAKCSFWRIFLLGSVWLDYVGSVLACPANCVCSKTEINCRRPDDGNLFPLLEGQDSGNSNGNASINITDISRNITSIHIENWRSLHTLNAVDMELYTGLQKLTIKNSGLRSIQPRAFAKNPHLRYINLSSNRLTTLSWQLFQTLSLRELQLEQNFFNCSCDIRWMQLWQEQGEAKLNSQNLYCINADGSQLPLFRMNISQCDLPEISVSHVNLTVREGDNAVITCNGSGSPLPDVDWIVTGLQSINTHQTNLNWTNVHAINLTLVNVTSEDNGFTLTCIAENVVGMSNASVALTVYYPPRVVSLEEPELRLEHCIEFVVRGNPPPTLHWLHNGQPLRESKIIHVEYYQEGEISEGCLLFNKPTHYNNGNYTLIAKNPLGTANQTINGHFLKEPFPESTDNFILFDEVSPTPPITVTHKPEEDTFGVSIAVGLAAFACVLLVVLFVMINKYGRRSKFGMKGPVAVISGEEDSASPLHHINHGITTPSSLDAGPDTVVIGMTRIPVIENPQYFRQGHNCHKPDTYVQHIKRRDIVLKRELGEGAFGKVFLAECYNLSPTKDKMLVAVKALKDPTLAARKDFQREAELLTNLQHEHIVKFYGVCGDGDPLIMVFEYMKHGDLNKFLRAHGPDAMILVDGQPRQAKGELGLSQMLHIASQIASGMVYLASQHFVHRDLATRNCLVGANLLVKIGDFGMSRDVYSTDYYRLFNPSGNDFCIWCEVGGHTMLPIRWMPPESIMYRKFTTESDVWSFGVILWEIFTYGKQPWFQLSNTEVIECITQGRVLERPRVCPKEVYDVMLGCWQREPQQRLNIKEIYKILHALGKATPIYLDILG
60 kDa heat shock protein, mitochondrial with HSP10: 60 kDa heat shock protein, mitochondrial, with HSP10 (Homo sapiens, UniProt P10809)
UniProt P10809, sequence (whole entry, looked up): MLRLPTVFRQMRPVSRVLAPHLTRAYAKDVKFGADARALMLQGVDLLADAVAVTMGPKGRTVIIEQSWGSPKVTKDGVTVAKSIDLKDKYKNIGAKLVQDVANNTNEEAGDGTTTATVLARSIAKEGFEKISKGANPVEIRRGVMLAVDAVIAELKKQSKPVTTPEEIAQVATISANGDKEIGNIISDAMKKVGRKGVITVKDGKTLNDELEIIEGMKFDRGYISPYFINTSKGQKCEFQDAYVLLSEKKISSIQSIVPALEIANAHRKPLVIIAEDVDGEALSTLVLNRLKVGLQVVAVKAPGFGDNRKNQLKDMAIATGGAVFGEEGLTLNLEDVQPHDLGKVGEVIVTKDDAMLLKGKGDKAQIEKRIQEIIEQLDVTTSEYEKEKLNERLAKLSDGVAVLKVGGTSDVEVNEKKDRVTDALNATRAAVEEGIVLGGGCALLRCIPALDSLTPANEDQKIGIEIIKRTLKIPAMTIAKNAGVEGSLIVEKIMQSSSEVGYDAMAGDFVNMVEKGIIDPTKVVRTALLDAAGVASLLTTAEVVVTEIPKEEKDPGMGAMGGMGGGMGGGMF
KRAS C118S/G12V with SOS1: GTPase KRas, with SOS1 (KRAS, Homo sapiens, UniProt P01116, C118S/G12V)
MCL1: Induced myeloid leukemia cell differentiation protein Mcl-1 (MCL1, Homo sapiens, UniProt Q07820)
UniProt Q07820, sequence (whole entry, looked up): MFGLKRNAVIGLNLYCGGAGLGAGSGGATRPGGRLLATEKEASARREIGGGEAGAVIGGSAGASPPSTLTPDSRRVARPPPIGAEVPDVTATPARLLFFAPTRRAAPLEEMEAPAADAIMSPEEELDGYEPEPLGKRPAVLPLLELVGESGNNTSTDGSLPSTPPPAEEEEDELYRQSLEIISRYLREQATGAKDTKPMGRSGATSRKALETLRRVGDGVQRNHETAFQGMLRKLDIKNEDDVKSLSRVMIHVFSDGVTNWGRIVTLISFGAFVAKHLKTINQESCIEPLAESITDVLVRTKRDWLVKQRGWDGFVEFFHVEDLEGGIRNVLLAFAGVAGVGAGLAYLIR
Lysine--tRNA ligase, cytoplasmic: Lysine--tRNA ligase, cytoplasmic (Arabidopsis thaliana, UniProt Q9ZPI1)
UniProt Q9ZPI1, sequence (whole entry, looked up): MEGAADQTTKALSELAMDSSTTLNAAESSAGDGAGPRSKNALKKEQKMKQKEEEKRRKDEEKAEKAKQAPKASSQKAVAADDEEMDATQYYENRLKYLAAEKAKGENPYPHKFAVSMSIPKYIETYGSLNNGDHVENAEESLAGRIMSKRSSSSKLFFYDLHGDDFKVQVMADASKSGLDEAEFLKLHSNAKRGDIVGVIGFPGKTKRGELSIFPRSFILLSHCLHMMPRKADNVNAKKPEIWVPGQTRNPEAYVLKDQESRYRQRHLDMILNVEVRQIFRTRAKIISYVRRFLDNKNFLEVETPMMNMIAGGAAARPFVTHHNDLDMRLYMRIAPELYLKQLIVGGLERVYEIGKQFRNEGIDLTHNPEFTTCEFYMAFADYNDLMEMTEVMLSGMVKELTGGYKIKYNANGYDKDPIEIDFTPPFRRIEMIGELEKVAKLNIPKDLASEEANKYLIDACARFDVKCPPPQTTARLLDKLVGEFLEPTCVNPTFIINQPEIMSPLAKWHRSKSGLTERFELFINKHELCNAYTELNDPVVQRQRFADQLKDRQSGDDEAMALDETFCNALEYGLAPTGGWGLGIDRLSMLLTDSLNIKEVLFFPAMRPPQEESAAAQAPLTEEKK
PTGS2: Prostaglandin G/H synthase 2 (PTGS2, Homo sapiens, UniProt P35354)
UniProt P35354, sequence (whole entry, looked up): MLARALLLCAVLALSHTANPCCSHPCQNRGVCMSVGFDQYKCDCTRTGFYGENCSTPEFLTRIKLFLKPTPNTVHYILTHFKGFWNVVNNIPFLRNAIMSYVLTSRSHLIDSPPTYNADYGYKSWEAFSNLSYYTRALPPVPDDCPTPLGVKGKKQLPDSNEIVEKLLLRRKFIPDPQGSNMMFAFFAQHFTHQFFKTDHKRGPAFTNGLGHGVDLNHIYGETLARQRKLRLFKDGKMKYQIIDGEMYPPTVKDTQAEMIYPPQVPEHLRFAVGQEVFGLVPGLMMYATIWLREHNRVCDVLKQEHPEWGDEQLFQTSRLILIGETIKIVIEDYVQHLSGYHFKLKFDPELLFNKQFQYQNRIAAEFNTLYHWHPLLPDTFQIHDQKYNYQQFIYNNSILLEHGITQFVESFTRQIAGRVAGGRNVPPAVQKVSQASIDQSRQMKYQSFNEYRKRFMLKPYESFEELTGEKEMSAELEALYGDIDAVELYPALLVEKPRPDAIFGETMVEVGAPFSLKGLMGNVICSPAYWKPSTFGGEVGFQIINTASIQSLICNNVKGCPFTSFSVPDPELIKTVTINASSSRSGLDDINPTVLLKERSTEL
KRAS with SOS1: GTPase KRas, with SOS1 (KRAS, Homo sapiens, UniProt P01116)
UniProt Q15561, sequence (whole entry, looked up): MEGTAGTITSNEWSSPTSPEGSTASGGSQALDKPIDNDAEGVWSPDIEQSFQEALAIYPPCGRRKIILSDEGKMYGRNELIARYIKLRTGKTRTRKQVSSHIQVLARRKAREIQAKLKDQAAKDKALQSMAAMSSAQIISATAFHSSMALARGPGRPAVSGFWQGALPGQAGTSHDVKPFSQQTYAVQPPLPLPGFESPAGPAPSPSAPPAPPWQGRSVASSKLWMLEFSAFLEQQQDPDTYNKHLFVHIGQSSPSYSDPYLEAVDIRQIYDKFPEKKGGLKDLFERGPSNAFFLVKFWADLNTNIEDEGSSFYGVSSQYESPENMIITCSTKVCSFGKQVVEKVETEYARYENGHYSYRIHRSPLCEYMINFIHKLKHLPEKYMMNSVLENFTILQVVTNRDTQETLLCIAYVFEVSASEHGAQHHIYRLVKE
UniProt O09061, sequence (whole entry, looked up): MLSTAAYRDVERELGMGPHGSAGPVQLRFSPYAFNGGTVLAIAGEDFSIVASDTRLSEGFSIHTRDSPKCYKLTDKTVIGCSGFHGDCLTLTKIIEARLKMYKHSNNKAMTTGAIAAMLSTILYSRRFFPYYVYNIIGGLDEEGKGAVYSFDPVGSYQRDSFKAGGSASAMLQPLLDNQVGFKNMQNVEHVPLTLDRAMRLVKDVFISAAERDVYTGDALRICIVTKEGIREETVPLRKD

Compound | target | test | test system | conditions | IC50
Cc1cccc(-c2nc(C#CCCO)[nH]c2-c2ccncc2)c1 | CSNK1E | inhibitor | – | – | 393 nM
Cc1ccc2[nH]nc(-c3nnc(Nc4ccc(F)cc4)s3)c2c1 | α-glucosidase | enzyme activity, inhibitor | – | pH 6.8, added: p-nitrophenyl-α-D-glucopyranoside | 2130 ± 1130 nM
CN1CCN(c2cnc3c(cc(C(=O)NCc4ccc(Cl)cc4)c(=O)n3CC(=O)N3CC(C)(F)C3)n2)C1=O | DNA polymerase catalytic subunit (Human cytomegalovirus, UniProt P08546) | enzyme activity | – | single determination | 290 nM
COc1c(Cl)cccc1Nc1c(-c2ccncc2OC[C@@H]2COCCO2)[nH]c2c1C(=O)NCC2 | Mitotic checkpoint serine/threonine-protein kinase BUB1 (BUB1, Homo sapiens, UniProt O43683) | kinase activity, inhibitor, TR-FRET | – | median value, added: ATP 2 mM | 5200 nM
Fc1ccc(-c2nc[nH]c2-c2ccncc2)cc1 | CSNK1E | inhibitor | – | – | 120 ± 23.2 nM
Cc1[nH]c2cccc(C(=O)N3CCC(F)(F)C3)c2c1S(=O)(=O)Nc1ccc(C(F)(F)F)c(Cl)c1 | DRD2 | – | – | – | > 100000 nM
Cn1cnc(Cn2ccc3ccc(CNCc4[nH]c5ccccc5c4[C@H]4NC(=O)c5ccc(O)cc54)cc32)c1 | GTPase KRas, GppNHp-bound; with RAF1-RBD (KRAS, Homo sapiens, UniProt P01116) | binding, HTRF | – | – | 5100 nM
CN(C)C(=O)c1cc2cnc(Nc3ccc(-c4ccc5c(=O)cc(N6CCOCC6)oc5c4)cc3)nc2n1C1CCCC1 | CDK6 with cyclin D1 | inhibitor, HotSpot radiometric kinase | – | added: 10 µM ATP, cyclin D1 | 10.2 nM
Cc1ccc(NS(=O)(=O)c2c(C)[nH]c(C)c2C(=O)N2CC(F)(F)C(F)(F)C2)cc1Cl | DRD2 | – | – | – | > 100000 nM
CC(C)C[C@H](NC(=O)[C@H](CCc1ccccc1)NC(=O)CN1CCOCC1)C(=O)N[C@@H](Cc1ccccc1)C(=O)N[C@@H](CC(C)C)C(=O)[C@@]1(C)CO1 | Proteasome subunit beta type-1/Psmb5, β5 subunit (Mus musculus, UniProt O09061+O55234) | proteasome subunit activity | Ba/F3 BCR-ABL1 H396P | 1 h pulse | 4.05 nM
Cc1nn(-c2nc3c(F)cc(F)cc3s2)c(O)c1C(c1cccc(C(F)(F)F)c1)c1c(C)nn(-c2nc3c(F)cc(F)cc3s2)c1O | Cyclic GMP-AMP synthase (CGAS, Homo sapiens, UniProt Q8N884) | enzyme activity, pyrophosphatase-coupled | – | mean of 3 experiments | 23100 nM
Cc1cc(O)cc(Nc2nnc(-c3n[nH]c4ccc(C)cc34)s2)c1 | α-glucosidase | enzyme activity, inhibitor | – | pH 6.8, added: p-nitrophenyl-α-D-glucopyranoside | 6350 ± 1560 nM
O=C(NC1CCC1)[C@H](Cc1c[nH]c2ccccc12)NC(=O)[C@H](CCCCNC(=S)NCc1cc(O)no1)NS(=O)(=O)c1cccc(F)c1 | NAD-dependent protein deacylase sirtuin-5, mitochondrial (SIRT5, Homo sapiens, UniProt Q9NXA8) | enzyme activity, inhibitor | – | – | 5900 ± 200 nM
COc1cc2nccc(Oc3ccc(NC(=O)c4cc5c(n(-c6ccccc6)c4=O)CCCC5=O)nc3)c2cc1OC | NTRK3 | cell viability, CellTiter-Glo | Ba/F3 expressing recombinant kinase | 48 h | > 100 nM
C[C@@H]1CN(C(=O)c2ccc(NC(=O)c3cc(O[C@H](C)c4c(Cl)ccc(F)c4Cl)c(N)nn3)cc2)C[C@H](C)N1 | NTRK3 | enzyme activity, inhibitor | – | added: 1 mM ATP | 20 nM
CC(C)Cc1sc(N)nc1-c1ccc(P(=O)(O)O)o1 | Fructose-1,6-bisphosphatase 1 (Mus musculus, UniProt Q9QXD6, G27P) | inhibitor, coupled FBPase | – | mutant G27P, untagged | ~500000 nM
CCCCCCCCCCCCCC(C)=O | uncharacterized protein (Spodoptera exigua, UniProt F1CEY0) | binding, fluorescence competitive binding | – | added: 1-NPN 2.0 µM | 11100 nM
Cc1nn(C)c2ncc(C(=O)NCc3ccccc3)c(Cl)c12 | 60 kDa heat shock protein, mitochondrial with HSP10 | HSP60/10-mediated MDH refolding | – | 5 min, preincubation before ATP, added: denatured malate dehydrogenase | 29000 nM
CN1CCN(c2ccc(Nc3ncc4cc(C#N)c(=O)n(C5CCCC5)c4n3)cc2)CC1 | Serine/threonine-protein kinase 10 (STK10, Homo sapiens, UniProt O94804) | – | – | – | 107 nM
CC#CC(=O)N[C@H]1CCCN(c2c(F)cc(C(N)=O)c3[nH]c(C)c(C)c23)C1 | Tyrosine-protein kinase JAK1 (JAK1, Homo sapiens, UniProt P23458) | – | – | – | > 5000 nM
C=CC(=O)c1cccnc1Nc1cccc(C(F)(F)F)c1 | Transcriptional enhancer factor TEF-3 (TEAD4, Homo sapiens, UniProt Q15561) | thiol conjugation, inhibitor, CPM | – | pH 6.5 | 5820 nM
C[C@H]1CNCCCN1c1nccc(-c2noc([C@@]3(C)CCCc4sc(N)c(C#N)c43)n2)n1 | KRAS C118S/G12V with SOS1 | KRAS G12V-SOS1 interaction, inhibitor, AlphaScreen | – | geometric mean | 9 nM

Compound | target | test | test system | conditions | IC50
COc1ccccc1C[C@@H](Oc1cccc2cc(-c3ccc(F)cc3)n(-c3ccc(OCCN4CCN(C)CC4)c(Cl)c3C)c12)C(=O)O | MCL1 | – | – | – | 47 nM
Cc1[nH]c(C)c(S(=O)(=O)Nc2cc(Cl)c(Cl)cc2Cl)c1C(=O)N1CCC(F)(F)C1 | DRD2 | – | – | – | > 100000 nM
Fc1ccc(-c2nc(-c3ccc4c(c3)OCO4)[nH]c2-c2ccncc2)cc1 | CSNK1E | inhibitor | – | – | 602 ± 72.6 nM
CC[C@@H]1[C@H](F)C(=O)N[C@@H]1COc1nccc2cc(C(N)=O)c(OC)cc12 | SNF-related serine/threonine-protein kinase (SNRK, Homo sapiens, UniProt Q9NRH2) | ATP-site probe binding, ActivX profiling | THP-1 cell lysate | Lys2 site | > 5000 nM
Nc1nsc(C(=O)NCC2CCCCC2)c1I | Lysine--tRNA ligase, cytoplasmic | enzyme activity, inhibitor | – | – | 3980 nM
CSc1ccc(NS(=O)(=O)c2c(C)[nH]c(C)c2C(=O)N2CCC(F)(F)C2)cc1Cl | DRD2 | – | – | – | > 100000 nM
Fc1ccc(-c2nc(-c3c(F)cccc3Br)[nH]c2-c2ccncc2)cc1 | CSNK1E | inhibitor | – | – | 25.1 ± 2.6 nM
Cc1nn(C)c2ncc(C(=O)NCC3CC(Br)=NO3)c(Cl)c12 (stereo not shown) | 60 kDa heat shock protein, mitochondrial with HSP10 | HSP60/10-mediated MDH refolding | – | 5 min, preincubation before ATP, added: denatured malate dehydrogenase | > 100000 nM
COc1ccccc1-c1nccc(COc2ccccc2C[C@@H](Oc2cccc3sc(-c4ccc(F)cc4)c(-c4ccc(OCCN5CCN(C)CC5)c(Cl)c4C)c23)C(=O)O)n1 | MCL1 | binding, quench | – | – | 1.8 nM
CN1CCN(c2cc(=O)c3ccc(Nc4ncc5cc(C(=O)N(C)C)n(C6CCCC6)c5n4)cc3o2)CC1 | CDK6 with cyclin D1 | inhibitor, HotSpot radiometric kinase | – | added: 10 µM ATP, cyclin D1 | 25.5 nM
CS(=O)(=O)c1ccc(-c2noc(C(F)(F)F)c2-c2ccccc2)cc1 | PTGS2 | inhibitor | – | – | 1 nM
N=C(N)Nc1cccc(C(=O)NCC(=O)NC[C@H](NC(=O)c2c(Cl)cc(-c3ccc4cn[nH]c4c3)cc2Cl)C(=O)O)c1 | Integrin alpha-V/beta-5 (Homo sapiens, UniProt P06756+P18084) | cell adhesion, inhibitor | SW480 | added: vitronectin 1 µg/mL | 63100 nM
C[C@]1(c2nc(-c3cccc(N4CCNCC4)n3)no2)CCCc2sc(N)c(C#N)c21 | KRAS with SOS1 | KRAS wild type-SOS1 interaction, inhibitor, AlphaScreen | – | geometric mean | 461 nM
CCCN1CC(c2ccc(S(C)(=O)=O)cc2)=C(c2ccc(C)cc2)C1=O | PTGS2 | inhibitor | – | – | 18 nM
CCN(CC)CCCC(C)Nc1ccnc2cc(Cl)ccc12 (stereo not shown) | Serine/threonine-protein kinase ULK1 (ULK1, Homo sapiens, UniProt O75385) | enzyme activity, inhibitor | – | added: 10 µM ATP | > 10000 nM
Cc1nc2ccccc2c(=O)n1NC(=O)CSc1nc2ccccc2c(=O)n1-c1ccccc1 | Xanthine dehydrogenase/oxidase (XDH, Bos taurus, UniProt P80457) | enzyme activity, inhibitor | – | – | 12800 ± 1410 nM
O=C(Nc1ccc(OS(=O)(=O)c2ccc(Cl)cc2)cc1)c1cnccn1 | P2X purinoceptor 7 (P2RX7, Homo sapiens, UniProt Q99572) | calcium mobilization, antagonist | MCF7 transfected with P2RX7 | added: 100 µM BzATP | 1330 ± 132 nM
C[C@H]1CN(C)CCN1c1cccc(-c2noc([C@@]3(C)CCCc4sc(N)c(C#N)c43)n2)n1 | KRAS with SOS1 | KRAS wild type-SOS1 interaction, inhibitor, AlphaScreen | – | geometric mean | 104 nM
Nc1nsc(C(=O)NCC2CCCC2)c1Cl | Lysine--tRNA ligase, cytoplasmic | enzyme activity, inhibitor | – | – | 1580 nM
Cc1ccc(NS(=O)(=O)c2c(C)[nH]c(C)c2C(=O)N2CCC(F)(F)C2)cn1 | DRD2 | – | – | – | > 100000 nM
C[C@H](Oc1nccc(-c2noc([C@@]3(C)CCCc4sc(N)c(C#N)c43)n2)n1)[C@@H]1CCCN1C | KRAS C118S/G12V with SOS1 | KRAS G12V-SOS1 interaction, inhibitor, AlphaScreen | – | geometric mean | 6 nM

Some of these lines once more:
Compound | target | test | test system | conditions | IC50
C[C@@H]1CN(C(=O)c2ccc(NC(=O)c3cc(O[C@H](C)c4c(Cl)ccc(F)c4Cl)c(N)nn3)cc2)C[C@H](C)N1 | NTRK3 | enzyme activity, inhibitor | – | added: 1 mM ATP | 20 nM
CC(C)Cc1sc(N)nc1-c1ccc(P(=O)(O)O)o1 | Fructose-1,6-bisphosphatase 1 (Mus musculus, UniProt Q9QXD6, G27P) | inhibitor, coupled FBPase | – | mutant G27P, untagged | ~500000 nM
CCCCCCCCCCCCCC(C)=O | uncharacterized protein (Spodoptera exigua, UniProt F1CEY0) | binding, fluorescence competitive binding | – | added: 1-NPN 2.0 µM | 11100 nM
Cc1nn(C)c2ncc(C(=O)NCc3ccccc3)c(Cl)c12 | 60 kDa heat shock protein, mitochondrial with HSP10 | HSP60/10-mediated MDH refolding | – | 5 min, preincubation before ATP, added: denatured malate dehydrogenase | 29000 nM
